Experimental data of several laboratories.
Parts stem from different laboratories: compare values within a part only. Values joined by “and” are separate records of one study, mostly repeats; a detail may differ.
Chain of UniProt Q9H1R3 (whole entry, looked up): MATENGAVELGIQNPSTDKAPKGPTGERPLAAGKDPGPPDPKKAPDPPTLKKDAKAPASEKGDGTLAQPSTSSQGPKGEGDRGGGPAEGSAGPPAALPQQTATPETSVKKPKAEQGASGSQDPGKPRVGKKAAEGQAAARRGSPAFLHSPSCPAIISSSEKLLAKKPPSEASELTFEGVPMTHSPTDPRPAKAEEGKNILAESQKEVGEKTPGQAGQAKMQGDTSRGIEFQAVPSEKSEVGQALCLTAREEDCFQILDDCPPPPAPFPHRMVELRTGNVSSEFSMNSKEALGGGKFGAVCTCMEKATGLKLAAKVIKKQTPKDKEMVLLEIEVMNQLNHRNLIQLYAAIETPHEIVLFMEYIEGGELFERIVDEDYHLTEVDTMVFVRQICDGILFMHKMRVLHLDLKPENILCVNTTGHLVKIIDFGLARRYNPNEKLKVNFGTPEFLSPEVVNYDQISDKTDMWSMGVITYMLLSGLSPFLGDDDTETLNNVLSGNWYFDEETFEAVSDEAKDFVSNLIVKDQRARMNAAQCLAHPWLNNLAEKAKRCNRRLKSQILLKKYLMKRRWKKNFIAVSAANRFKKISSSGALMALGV
Chain of UniProt Q6ZN16 (whole entry, looked up): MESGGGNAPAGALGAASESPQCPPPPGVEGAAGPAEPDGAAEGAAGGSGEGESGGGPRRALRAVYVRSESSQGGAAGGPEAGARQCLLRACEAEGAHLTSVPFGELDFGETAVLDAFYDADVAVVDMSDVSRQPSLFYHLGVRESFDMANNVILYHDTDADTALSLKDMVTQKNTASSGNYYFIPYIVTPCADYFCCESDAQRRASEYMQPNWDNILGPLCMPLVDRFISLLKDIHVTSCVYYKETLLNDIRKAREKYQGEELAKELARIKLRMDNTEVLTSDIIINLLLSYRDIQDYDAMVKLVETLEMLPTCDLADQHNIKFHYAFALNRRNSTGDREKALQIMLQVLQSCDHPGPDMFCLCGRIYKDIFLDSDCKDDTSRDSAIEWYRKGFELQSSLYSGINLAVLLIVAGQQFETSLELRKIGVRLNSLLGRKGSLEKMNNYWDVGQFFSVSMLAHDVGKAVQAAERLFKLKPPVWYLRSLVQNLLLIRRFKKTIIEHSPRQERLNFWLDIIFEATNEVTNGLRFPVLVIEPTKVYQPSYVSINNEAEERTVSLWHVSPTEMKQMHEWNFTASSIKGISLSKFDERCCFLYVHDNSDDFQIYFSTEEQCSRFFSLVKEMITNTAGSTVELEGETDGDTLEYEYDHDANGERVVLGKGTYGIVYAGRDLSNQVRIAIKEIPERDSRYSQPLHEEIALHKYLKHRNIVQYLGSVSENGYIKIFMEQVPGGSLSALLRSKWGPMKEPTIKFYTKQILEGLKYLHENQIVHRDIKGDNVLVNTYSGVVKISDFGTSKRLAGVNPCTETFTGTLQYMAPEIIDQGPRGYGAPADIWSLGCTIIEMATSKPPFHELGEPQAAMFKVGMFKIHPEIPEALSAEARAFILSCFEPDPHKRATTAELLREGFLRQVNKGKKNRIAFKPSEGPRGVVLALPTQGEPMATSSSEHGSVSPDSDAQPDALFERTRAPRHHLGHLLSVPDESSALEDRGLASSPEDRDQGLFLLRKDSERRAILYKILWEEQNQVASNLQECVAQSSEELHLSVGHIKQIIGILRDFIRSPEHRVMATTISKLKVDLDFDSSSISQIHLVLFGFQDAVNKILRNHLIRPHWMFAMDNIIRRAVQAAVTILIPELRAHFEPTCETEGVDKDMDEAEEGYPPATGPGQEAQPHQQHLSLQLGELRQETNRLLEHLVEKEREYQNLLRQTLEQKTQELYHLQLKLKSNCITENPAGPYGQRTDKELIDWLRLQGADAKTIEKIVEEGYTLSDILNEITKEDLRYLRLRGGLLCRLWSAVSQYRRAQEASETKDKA
Chain of UniProt Q8IVH8 (whole entry, looked up): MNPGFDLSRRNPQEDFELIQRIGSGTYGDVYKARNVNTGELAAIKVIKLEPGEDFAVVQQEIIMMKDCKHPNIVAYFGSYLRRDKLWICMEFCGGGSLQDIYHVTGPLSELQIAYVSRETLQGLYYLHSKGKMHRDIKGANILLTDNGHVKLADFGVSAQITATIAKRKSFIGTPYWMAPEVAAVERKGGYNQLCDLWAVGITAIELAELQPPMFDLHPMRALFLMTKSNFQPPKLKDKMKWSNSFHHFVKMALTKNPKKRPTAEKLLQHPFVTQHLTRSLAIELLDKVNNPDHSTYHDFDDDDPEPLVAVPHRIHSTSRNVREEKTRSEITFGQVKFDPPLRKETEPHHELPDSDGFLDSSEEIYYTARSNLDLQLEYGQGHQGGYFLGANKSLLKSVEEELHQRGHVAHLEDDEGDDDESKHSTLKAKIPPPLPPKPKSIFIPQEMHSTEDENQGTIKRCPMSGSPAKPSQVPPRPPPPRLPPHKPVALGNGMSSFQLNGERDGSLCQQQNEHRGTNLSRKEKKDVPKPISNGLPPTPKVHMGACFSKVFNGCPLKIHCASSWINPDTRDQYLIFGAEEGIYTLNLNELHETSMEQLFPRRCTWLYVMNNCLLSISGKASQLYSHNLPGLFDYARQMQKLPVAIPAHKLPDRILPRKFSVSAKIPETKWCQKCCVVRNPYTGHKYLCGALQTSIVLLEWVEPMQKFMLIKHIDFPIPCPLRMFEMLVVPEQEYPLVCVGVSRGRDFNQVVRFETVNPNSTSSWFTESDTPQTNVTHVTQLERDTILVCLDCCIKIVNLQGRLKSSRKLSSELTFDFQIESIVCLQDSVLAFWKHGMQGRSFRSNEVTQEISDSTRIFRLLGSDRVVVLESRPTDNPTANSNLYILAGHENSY
Chain of UniProt O00141 (whole entry, looked up): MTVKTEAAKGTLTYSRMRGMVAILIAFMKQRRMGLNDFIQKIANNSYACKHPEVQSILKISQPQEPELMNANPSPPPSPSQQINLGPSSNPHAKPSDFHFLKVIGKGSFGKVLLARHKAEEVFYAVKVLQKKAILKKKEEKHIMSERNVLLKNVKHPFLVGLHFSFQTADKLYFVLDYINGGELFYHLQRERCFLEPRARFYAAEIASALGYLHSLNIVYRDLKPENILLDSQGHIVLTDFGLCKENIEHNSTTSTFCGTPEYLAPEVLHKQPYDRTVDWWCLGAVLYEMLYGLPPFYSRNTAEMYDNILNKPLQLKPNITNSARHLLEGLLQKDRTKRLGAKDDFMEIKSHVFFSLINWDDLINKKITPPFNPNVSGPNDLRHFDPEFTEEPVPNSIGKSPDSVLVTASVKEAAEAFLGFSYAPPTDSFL

Series 1
SMILES: CCC1(c2cccc(-c3cn(C)nc3C)c2)C2=C(Nc3n[nH]cc31)C(F)C(C)(C)CC2=O (single isomer, unassigned)
Concentration: 1 µM
The remaining binding was 90% (MAP3K15 (Homo sapiens, UniProt Q6ZN16); kinase binding, KINOMEscan; relative to: DMSO control).
For MYLK2 (Homo sapiens, UniProt Q9H1R3); kinase binding, KINOMEscan; relative to: DMSO control: remaining binding read 100%.
PIK3CA (Homo sapiens, UniProt P42336, E545K); kinase binding, KINOMEscan; relative to: DMSO control — remaining binding: 59%.
HIPK1 (Homo sapiens, UniProt Q86Z02); kinase binding, KINOMEscan; relative to: DMSO control — remaining binding: 78%.
For ROS1 (Homo sapiens, UniProt P08922); kinase binding, KINOMEscan; relative to: DMSO control: remaining binding read 81%.
For RET (Homo sapiens, UniProt P07949, M918T); binding, competition with immobilised ligand: remaining binding read 100%.
CSNK1G2 (Homo sapiens, UniProt P78368); kinase binding, KINOMEscan; relative to: DMSO control — remaining binding: 99%.
For Tyrosine-protein kinase ABL1, non-phosphorylated (ABL1, Homo sapiens, UniProt P00519, H396P); kinase binding, KINOMEscan; relative to: DMSO control: remaining binding read 88%.
For PRKD1 (Homo sapiens, UniProt Q15139); kinase binding, KINOMEscan; relative to: DMSO control: remaining binding read 99%.
For SRPK3 (Homo sapiens, UniProt Q9UPE1); binding, competition with immobilised ligand: remaining binding read 100%.
The remaining binding was 100% (MAP4K3 (Homo sapiens, UniProt Q8IVH8); binding, competition with immobilised ligand).
For BMPR1B (Homo sapiens, UniProt O00238); binding, competition with immobilised ligand: remaining binding read 98%.
For SGK1 (Homo sapiens, UniProt O00141); binding, competition with immobilised ligand: remaining binding read 97%.
The remaining binding was 100% (BRAF (Homo sapiens, UniProt P15056); binding, competition with immobilised ligand).

Series 2
Target: Membrane-associated tyrosine- and threonine-specific cdc2-inhibitory kinase (PKMYT1, Homo sapiens, UniProt Q99640)
Effect on: binding
Technique: HTRF
Concentration: 12.35 nM
Residues (Q99640 1-499): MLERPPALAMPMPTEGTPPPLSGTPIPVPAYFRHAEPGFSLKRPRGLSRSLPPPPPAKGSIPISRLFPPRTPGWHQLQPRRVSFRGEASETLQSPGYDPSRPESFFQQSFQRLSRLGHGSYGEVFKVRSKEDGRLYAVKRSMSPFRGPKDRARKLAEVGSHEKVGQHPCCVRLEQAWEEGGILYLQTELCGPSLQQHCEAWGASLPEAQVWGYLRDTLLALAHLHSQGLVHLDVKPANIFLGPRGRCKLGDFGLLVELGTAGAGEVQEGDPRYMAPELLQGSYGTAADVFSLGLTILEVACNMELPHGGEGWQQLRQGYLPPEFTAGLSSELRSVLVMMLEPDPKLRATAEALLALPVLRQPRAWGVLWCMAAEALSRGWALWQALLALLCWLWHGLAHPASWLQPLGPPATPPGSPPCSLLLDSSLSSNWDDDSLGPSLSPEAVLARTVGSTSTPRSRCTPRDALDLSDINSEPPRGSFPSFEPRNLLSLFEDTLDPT
For `Cc1ccc(O)c(C)c1-c1cnc2[nH]c(-c3cnc(N4CCC(CN5CCN(c6ccc(NC7CCC(=O)NC7=O)c(F)c6)CC5)CC4)nc3)cc2c1C#N` (racemic), the inhibition was 81.4% and 82.2%.
`Cc1ccc(O)c(C)c1-c1cnc2[nH]c(-c3cnc(N4CCC(CCN5CCN(c6ccc(N7CCC(=O)NC7=O)cc6F)CC5)CC4)nc3)cc2c1C#N` has an inhibition of 94% and 94.3%.
`Cc1ccc(O)c(C)c1-c1cnc2[nH]c(-c3cnc(N4CCC(CN5CCN(c6c(F)cc(NC7CCC(=O)NC7=O)cc6F)CC5)CC4)nc3)cc2c1C#N` (racemic) has an inhibition of 46.4% and 44.2%.
The inhibition of `Cc1ncc(-c2cc3c(N)c(-c4c(C)ccc(O)c4C)cnc3[nH]2)cn1` is reported as 9.4% and 9.11%.
With `Cc1ccc(O)c(C)c1-c1cnc2[nH]c(-c3cnc(N4CCC(CCN5CCN(c6cc7c(cc6F)c(N6CCC(=O)NC6=O)nn7C)CC5)CC4)nc3)cc2c1C#N` the inhibition was 90.7% and 91.9%.
For `Cc1ccc(O)c(C)c1-c1cnc2[nH]c(-c3cnc(N4CCC5(CC4)CC(N4CCN(c6ccc7c(c6)C(=O)N(C6CCC(=O)NC6=O)C7=O)CC4)CO5)nc3)cc2c1C#N` (mixture of isomers), the inhibition was 81.1% and 78.8%.

Series 3
SMILES: C[C@@H]1CN(c2ccc(-c3cc(C(=O)NCCOCCOCCOCCOCCNC(=O)Cn4cc(-c5[nH]cc(C(=O)N[C@@H](CC(N)=O)c6ccc(F)c(Cl)c6)c5-c5ccc(Cl)cc5F)cn4)ccc3F)cc2NC(=O)c2c[nH]c(=O)cc2C(F)(F)F)C[C@H](C)N1C
Effect on: thermal unfolding
Technique: differential scanning fluorimetry
Concentration: 5.5 µM
Direction: higher = more unfolded
WDR5: WD repeat-containing protein 5 (WDR5, Homo sapiens, UniProt P61964)
DCAF1: DDB1- and CUL4-associated factor 1 (DCAF1, Homo sapiens, UniProt Q9Y4B6)
Chain of UniProt Q9Y4B6 (whole entry, looked up): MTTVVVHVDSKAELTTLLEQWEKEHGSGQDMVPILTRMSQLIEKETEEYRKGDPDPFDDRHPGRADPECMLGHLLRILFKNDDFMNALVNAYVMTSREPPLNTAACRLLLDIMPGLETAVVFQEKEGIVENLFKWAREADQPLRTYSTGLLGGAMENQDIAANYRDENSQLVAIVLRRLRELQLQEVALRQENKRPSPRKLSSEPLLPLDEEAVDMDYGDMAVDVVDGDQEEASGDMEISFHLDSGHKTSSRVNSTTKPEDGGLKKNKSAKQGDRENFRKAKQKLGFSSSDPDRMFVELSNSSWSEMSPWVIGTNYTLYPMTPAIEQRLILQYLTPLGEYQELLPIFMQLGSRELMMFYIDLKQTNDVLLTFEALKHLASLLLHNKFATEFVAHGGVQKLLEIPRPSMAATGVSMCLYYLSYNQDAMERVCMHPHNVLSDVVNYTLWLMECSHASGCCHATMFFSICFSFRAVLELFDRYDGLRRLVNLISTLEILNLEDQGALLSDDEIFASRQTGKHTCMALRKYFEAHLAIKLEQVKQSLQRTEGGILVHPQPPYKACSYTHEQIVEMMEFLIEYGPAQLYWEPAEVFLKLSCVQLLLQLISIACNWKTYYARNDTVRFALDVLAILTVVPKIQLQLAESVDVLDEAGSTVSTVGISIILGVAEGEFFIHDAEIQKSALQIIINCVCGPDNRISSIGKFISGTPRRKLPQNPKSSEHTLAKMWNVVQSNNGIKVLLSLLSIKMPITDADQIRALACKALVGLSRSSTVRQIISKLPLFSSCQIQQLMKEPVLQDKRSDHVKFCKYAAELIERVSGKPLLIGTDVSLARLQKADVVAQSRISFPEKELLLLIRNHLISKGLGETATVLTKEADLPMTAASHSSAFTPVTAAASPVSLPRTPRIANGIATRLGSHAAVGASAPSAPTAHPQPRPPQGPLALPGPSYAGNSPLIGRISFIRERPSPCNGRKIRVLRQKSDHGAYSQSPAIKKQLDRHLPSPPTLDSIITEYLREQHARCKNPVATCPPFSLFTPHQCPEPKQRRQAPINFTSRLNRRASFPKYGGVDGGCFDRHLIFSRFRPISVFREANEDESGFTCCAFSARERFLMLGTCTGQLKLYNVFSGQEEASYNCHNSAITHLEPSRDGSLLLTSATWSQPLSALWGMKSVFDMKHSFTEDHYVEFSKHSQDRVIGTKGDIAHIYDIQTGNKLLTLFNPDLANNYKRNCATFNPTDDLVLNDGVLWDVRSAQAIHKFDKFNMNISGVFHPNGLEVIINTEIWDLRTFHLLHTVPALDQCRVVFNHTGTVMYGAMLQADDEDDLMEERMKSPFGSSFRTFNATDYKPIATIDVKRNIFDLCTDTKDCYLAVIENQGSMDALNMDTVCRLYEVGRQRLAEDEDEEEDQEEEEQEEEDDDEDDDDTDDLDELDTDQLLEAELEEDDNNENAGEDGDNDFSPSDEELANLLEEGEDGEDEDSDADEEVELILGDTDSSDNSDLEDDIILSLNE
It gave 6760 a.u. for “SYPRO Orange fluorescence” (WDR5; 69.61 °C).
DCAF1; 58.01 °C — “SYPRO Orange fluorescence”: 28900 a.u.
For WDR5; 30.6 °C: “SYPRO Orange fluorescence” read 15000 a.u.
DCAF1; 54.41 °C — “SYPRO Orange fluorescence”: 18400 a.u.
For DCAF1; 55.01 °C: “SYPRO Orange fluorescence” read 19500 a.u.
For DCAF1; 52.41 °C: “SYPRO Orange fluorescence” read 16100 a.u.
The “SYPRO Orange fluorescence” was 11200 a.u. (DCAF1; 42.6 °C).

Single results of other studies
For `CCN1/C(=C/C=C2\CCCC(/C=C/C3=[N+](CC)c4ccccc4C3(C)C)=C2NCCCCN2CCC(C(=O)c3ccc(NS(C)(=O)=O)cc3)CC2)C(C)(C)c2ccccc21`, “fluorescence quantum yield” read 1.2 (PBS; 10 µM; relative to: Cy5).

Excerpt of the above (series 1):
PIK3CA (Homo sapiens, UniProt P42336, E545K); kinase binding, KINOMEscan; relative to: DMSO control — remaining binding: 59%.
HIPK1 (Homo sapiens, UniProt Q86Z02); kinase binding, KINOMEscan; relative to: DMSO control — remaining binding: 78%.
